Published values pooled from the literature.
Compare with care: the assays were run in different laboratories. “And” joins repeats or separate records; there may be more than shown. ± gives the spread as reported.
B4GALT1: Beta-1,4-galactosyltransferase 1 (B4GALT1, Homo sapiens, UniProt P15291)
Sequence of UniProt P15291 (whole entry, looked up): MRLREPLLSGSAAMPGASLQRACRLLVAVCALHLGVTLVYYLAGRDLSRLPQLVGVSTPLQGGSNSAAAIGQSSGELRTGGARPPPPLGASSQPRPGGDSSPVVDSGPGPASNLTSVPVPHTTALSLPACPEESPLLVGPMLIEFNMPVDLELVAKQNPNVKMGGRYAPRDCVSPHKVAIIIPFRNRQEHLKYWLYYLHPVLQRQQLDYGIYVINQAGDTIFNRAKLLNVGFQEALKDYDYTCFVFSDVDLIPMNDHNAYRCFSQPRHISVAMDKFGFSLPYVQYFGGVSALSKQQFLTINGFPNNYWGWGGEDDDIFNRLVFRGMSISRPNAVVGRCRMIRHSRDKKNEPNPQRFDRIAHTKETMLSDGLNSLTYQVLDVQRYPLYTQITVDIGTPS
GBA2: Beta-glucosidase (GBA2, Homo sapiens, UniProt Q9HCG7)
Sequence of UniProt Q9HCG7 (whole entry, looked up): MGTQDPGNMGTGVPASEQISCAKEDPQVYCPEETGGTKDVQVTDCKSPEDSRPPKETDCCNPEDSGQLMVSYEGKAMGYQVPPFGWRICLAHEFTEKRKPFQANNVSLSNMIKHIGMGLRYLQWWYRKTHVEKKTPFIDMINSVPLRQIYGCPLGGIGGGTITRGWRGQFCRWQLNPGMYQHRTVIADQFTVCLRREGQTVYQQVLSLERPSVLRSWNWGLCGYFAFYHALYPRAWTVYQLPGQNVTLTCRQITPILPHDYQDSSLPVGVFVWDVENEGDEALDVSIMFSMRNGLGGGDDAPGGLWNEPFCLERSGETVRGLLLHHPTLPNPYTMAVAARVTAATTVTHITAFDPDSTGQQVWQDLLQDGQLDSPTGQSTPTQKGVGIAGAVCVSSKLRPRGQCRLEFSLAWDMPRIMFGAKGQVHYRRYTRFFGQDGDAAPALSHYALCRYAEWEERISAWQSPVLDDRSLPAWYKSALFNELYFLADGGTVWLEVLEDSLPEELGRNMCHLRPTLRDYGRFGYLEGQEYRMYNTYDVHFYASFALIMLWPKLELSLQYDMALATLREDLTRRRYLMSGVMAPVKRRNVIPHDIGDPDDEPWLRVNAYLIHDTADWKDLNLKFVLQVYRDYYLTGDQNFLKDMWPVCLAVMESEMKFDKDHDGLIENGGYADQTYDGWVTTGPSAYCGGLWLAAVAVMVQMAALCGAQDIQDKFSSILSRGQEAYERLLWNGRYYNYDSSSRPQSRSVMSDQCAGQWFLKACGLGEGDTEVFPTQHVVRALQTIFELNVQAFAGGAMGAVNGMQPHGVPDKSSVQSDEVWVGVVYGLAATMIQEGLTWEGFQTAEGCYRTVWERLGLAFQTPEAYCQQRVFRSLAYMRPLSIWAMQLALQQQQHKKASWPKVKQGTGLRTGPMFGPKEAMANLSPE
CASP3: Caspase-3 (CASP3, Homo sapiens, UniProt P42574)
Sequence of UniProt P42574 (whole entry, looked up): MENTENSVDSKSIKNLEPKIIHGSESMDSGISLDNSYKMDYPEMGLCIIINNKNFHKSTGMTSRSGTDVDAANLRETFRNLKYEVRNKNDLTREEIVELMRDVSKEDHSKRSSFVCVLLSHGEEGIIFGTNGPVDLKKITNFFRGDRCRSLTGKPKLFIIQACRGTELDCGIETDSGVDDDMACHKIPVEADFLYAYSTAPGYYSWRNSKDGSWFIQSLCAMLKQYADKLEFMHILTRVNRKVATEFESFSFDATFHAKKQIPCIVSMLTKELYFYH
T1: hairpin RNA, designed, closed by two pairs; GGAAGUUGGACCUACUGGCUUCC
T2: hairpin RNA, hairpin; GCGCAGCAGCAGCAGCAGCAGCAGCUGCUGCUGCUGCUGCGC
Sequence of UniProt P63104 (whole entry, unmodified, looked up): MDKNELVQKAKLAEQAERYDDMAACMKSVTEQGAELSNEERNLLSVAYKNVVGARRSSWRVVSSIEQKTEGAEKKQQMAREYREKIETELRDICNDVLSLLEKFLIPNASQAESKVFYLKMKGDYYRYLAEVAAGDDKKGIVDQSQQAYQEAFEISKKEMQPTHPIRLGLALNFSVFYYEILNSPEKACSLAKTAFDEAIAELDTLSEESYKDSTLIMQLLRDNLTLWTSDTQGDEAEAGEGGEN
Sequence of UniProt O60674 (whole entry, looked up): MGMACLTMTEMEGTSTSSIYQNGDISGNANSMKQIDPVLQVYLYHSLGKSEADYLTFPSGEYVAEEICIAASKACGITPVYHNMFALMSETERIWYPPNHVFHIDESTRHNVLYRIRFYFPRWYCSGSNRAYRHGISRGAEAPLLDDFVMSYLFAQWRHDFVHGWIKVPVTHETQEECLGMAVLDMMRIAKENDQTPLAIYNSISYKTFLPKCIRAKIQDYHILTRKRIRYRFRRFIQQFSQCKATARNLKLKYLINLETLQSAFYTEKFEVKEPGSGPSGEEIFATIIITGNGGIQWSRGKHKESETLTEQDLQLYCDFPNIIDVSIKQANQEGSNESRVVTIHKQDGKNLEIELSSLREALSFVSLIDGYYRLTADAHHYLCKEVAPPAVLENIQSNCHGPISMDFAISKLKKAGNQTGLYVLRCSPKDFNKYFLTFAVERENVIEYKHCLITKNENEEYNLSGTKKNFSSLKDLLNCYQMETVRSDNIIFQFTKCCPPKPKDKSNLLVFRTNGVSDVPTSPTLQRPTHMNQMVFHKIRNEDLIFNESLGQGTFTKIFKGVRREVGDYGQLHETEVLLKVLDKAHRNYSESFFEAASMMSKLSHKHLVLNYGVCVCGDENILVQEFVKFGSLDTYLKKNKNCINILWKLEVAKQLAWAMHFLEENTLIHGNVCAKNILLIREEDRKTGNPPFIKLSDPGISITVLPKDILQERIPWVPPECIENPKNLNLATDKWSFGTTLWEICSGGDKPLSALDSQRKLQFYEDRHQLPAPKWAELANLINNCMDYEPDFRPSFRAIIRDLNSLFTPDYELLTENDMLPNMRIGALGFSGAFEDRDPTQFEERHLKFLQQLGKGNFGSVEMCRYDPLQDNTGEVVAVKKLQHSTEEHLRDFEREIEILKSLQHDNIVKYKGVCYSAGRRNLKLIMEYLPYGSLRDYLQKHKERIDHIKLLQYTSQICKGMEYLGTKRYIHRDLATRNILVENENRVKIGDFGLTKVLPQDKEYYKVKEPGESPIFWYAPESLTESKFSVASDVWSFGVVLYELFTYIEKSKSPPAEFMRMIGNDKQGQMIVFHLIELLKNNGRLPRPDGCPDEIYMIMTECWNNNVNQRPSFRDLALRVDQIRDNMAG
Sequence of UniProt P05067 (whole entry, looked up): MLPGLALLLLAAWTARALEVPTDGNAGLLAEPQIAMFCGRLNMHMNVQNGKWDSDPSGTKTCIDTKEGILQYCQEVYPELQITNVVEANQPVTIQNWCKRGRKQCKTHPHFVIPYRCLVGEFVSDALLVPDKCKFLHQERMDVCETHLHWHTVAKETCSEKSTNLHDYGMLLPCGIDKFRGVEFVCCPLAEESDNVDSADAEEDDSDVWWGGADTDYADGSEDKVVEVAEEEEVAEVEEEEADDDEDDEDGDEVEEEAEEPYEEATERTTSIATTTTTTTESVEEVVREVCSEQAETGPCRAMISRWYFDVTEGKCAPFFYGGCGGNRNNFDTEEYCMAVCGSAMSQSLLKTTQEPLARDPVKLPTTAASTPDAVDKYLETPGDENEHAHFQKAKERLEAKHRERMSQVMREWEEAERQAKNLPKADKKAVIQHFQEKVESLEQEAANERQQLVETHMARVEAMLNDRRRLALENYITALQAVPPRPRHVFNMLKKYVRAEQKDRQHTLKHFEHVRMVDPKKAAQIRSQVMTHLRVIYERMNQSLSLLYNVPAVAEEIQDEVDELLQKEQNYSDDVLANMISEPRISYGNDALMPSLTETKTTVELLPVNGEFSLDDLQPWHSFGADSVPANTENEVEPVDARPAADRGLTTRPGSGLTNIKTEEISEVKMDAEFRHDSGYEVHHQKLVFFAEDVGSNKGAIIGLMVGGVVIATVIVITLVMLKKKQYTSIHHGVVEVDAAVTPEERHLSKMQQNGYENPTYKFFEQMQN
Sequence of UniProt Q13148 (whole entry, looked up): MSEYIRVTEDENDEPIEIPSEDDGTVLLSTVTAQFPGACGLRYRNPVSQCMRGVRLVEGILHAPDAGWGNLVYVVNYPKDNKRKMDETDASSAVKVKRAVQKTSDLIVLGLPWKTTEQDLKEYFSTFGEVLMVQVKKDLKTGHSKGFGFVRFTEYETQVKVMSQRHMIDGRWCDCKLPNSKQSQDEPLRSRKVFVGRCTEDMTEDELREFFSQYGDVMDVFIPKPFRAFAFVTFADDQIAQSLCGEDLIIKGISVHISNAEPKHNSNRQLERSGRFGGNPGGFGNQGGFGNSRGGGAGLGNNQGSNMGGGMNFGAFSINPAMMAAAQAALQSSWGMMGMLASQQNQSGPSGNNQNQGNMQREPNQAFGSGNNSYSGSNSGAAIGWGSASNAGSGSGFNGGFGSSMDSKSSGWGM
Sequence of UniProt P03146 (whole entry, looked up): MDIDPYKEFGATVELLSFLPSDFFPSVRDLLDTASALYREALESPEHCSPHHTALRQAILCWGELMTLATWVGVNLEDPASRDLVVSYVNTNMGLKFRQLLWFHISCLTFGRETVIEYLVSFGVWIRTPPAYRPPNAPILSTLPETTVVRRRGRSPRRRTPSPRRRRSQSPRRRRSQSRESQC
Sequence of UniProt P35368 (whole entry, looked up): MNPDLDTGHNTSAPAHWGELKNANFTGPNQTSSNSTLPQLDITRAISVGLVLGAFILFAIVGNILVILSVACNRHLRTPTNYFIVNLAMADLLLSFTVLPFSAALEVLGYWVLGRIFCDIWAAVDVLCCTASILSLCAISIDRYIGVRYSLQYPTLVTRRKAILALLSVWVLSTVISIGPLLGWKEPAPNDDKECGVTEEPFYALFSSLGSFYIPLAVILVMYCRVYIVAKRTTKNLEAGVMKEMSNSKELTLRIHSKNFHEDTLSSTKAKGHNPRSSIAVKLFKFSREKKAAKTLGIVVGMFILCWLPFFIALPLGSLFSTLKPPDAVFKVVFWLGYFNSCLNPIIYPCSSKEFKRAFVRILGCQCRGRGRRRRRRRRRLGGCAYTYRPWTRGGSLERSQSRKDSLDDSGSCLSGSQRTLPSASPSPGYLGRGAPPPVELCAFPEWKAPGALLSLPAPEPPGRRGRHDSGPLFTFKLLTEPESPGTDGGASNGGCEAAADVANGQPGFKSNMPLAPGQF

For Cc1ccc2c(c1)C(O)CC1(CCN(CC(O)c3ccc4c(c3)CC(C)O4)CC1)O2 (centres unmarked), the luminescence was 59800 a.u. (B4GALT1; enzyme activity, inhibitor, UDP-Glo; 10 µM; lower means stronger inhibition).
Cc1ccc(CN)cc1 gave a Km of 55 µM (Maoa (Rattus norvegicus, UniProt P21396); enzyme activity, substrate; pH 7.5).
The selectivity ratio of CCCCCOCCCCCN1C[C@H](O)[C@@H](O)[C@H](O)[C@@H]1CO is reported as 6670 (GBA2; inhibitor, 4MU-β-D-glucopyranoside; HEK293T homogenates overexpressing GBA2; relative to: GBA1 IC50 over GBA2 IC50).
For O=C1c2sc(-c3ccc(N4CCC(CO)CC4)nc3F)nc2CCN1c1cccnc1, the specific binding was 5.2 nM and 7.09 nM (TAR DNA-binding protein 43, aggregated (TARDBP, Homo sapiens, UniProt Q13148); radioligand binding; human, FTLD-TDP type B extract; with: radioligand 37.19 nM).
With NC[C@H]1O[C@H](O[C@H]2[C@H](O)[C@@H](O[C@H]3O[C@H](CO)[C@@H](O)[C@H](N)[C@H]3O)[C@H](N)C[C@@H]2N)[C@H](N)C[C@@H]1O the Kd was 123 nM (T1, hairpin RNA, designed, closed by two pairs; ITC).
CC[C@H](C)[C@H](NC(=O)[C@@H](N)CCCCN)C(=O)N1CCC[C@H]1C(=O)N[C@@H](Cc1ccc(O)cc1)C(=O)N[C@@H](Cc1ccccc1)C(=O)N[C@@H](Cc1c[nH]cn1)C(=O)N[C@@H](C)C(=O)NCC(=O)NCC(=O)N[C@@H](CO)C(=O)N[C@@H](CCCCN)C(=O)N[C@@H](CS)C(=O)N[C@@H](CO)C(=O)N[C@H](C(=O)N[C@@H](Cc1c[nH]c2ccccc12)C(=O)N1CCC[C@H]1C(=O)N[C@@H](CC(C)C)C(=O)N1CCC[C@H]1C(=O)N[C@@H](CCC(N)=O)C(=O)N1CCC[C@H]1C(=O)N[C@@H](CO)C(=O)O)[C@@H](C)OP(=O)(O)O has a ΔH of -4.4 kcal/mol and -4.49 kcal/mol (YWHAZ (Homo sapiens, UniProt P63104); binding, ITC; 37 °C, short injection delay, with: phosphorylated PRLR peptide).
The luminescence of CN1CCCN(CC(=O)NC2CCc3c[nH]nc3C2)CC1 (centres unmarked) is reported as 60000 a.u. (B4GALT1; enzyme activity, inhibitor, UDP-Glo; 10 µM; lower means stronger inhibition).
COc1ccccc1-c1ccncc1C(=O)Nc1nnc(OCc2ccc(Cl)cc2)s1 has a remaining activity of 46% (DNA polymerase theta, helicase domain (POLQ, Homo sapiens, UniProt O75417); ATPase activity, ADP-Glo; 0.06 µM, with: ATP 400 µM).
CCCCCCCCCCCCCCCC(=O)NCCCC[C@H](NC(=O)[C@H](CCC(=O)O)NC(=O)[C@H](Cc1ccc(O)cc1)NC(=O)[C@H](CCC(=O)O)NC(=O)COCC(=O)NCCCOCCOCCOCCCNC(=O)[C@H](Cc1c[nH]c2ccccc12)NC(=O)[C@H](CCCCN)NC(=O)[C@H](C)NC(=O)[C@H](CCCCNC(=N)N)NC(=O)[C@H](CCC(N)=O)NC(=O)[C@H](Cc1c[nH]cn1)NC(=O)[C@H](CCSC)NC(=O)[C@H](CC(C)C)NC(=O)[C@H](CCC(N)=O)NC(=O)[C@@H](NC(=O)[C@H](CCC(=O)O)NC(=O)C(C)(C)NC(=O)[C@@H](NC(=O)C(C)(C)N)C(C)C)[C@@H](C)CC)C(=O)N[C@@H](CCC(=O)O)C(=O)N[C@@H](Cc1ccc(O)cc1)C(=O)N[C@@H](CCC(=O)O)C(N)=O: “cAMP luminescence AUC” 2.6 a.u. (PTH1R (Homo sapiens, UniProt Q03431); agonist; Saos-2 with cAMP reporter; 10 pM, 30 min, ligand-on phase; higher = more cAMP).
C=CC(=O)N1CCCC(n2c(=O)c3ncccc3n(Cc3ccc(Oc4ccccc4)cc3)c2=O)C1 (centres unmarked): “melting temperature shift” -5.25 (Rho GTPase-activating protein 25 (ARHGAP25, Homo sapiens, UniProt P42331); thermal proteome profiling; unit not given; relative to: untreated control).
For Cc1cnc2nc1Nc1cccc(c1)COCc1cc(ccc1OCCN1CCOCC1)N2, the inhibition was 89.6% and 87.5% and 89.5% (JAK2 (Homo sapiens, UniProt O60674); inhibitor, Z'-LYTE kinase; 333.3 nM).
For CCn1cc(-c2cccc(C(F)(F)F)c2)c2sc(C(=N)NC3CCS(=O)(=O)CC3)cc2c1=O, the ΔTm was -0.1 °C (Bromodomain adjacent to zinc finger domain protein 2B, bromodomain (BAZ2B, Homo sapiens, UniProt Q9UIF8); thermal stability, DSF).
For Nc1nc(SCc2ccccc2)nn1S(=O)(=O)c1ccc(F)cc1, “probe labeling increase” read 1.2 fold (LYPLAL1 (Homo sapiens, UniProt Q5VWZ2); enzyme activity, activator, gel-based ABPP; purified protein; concentration not given, with: FP-rhodamine; relative to: DMSO).
O=C(CC12CC3CC(CC(C3)C1)C2)NCCOCC(=O)NC1CCN(S(=O)(=O)c2cc(C(=O)Nc3cc(F)c(F)c(F)c3)ccc2F)CC1 has a kon of 283 M⁻¹ s⁻¹ (Capsid protein (C, Hepatitis B virus genotype D subtype ayw, UniProt P03146); surface plasmon resonance; 25 °C).
Cc1cc2oc(=O)cc(Cn3ccnc3)c2cc1O has an agonist activity of 2.65 ± 1.09% (ADRA1B (Homo sapiens, UniProt P35368); intracellular Ca2+ mobilization, agonist; COS-7; 500 µM; relative to: 3 µM ionomycin).
NC1(Cc2ccc(Cl)cc2)CCN(c2ncnc3[nH]ccc23)CC1 has a Hill coefficient of 1.67 ± 0.34 (Trpm7 (Mus musculus, UniProt Q923J1, F924A); calcium influx, inhibitor, aequorin luminescence; HEK293T expressing Trpm7).
C[C@@H](Nc1nc(N[C@H](C)C(F)(F)F)nc(-c2cccc(Cl)n2)n1)C(F)(F)F gave a maximal inhibition of 110 ± 3.8% (IDH1 (Homo sapiens, UniProt O75874, R132H); enzyme activity; 1 h preincubation, mutant heterodimer, reverse reaction).
With CC(=O)N1CCC[C@H]1C(=O)N[C@@H](CCC(N)=O)C(=O)N[C@@H](C)C(=O)N[C@@H](CC(=O)O)C(=O)COC(=O)c1c(C)cccc1C the kinact/KI was 37500 M⁻¹ s⁻¹ (CASP3; enzyme activity, inhibitor).
C#CCCC1(CCC(=O)N(CC)CC2CCN(c3c(F)cc4c(=O)c(C(=O)O)cn(CC)c4c3F)C2)N=N1 (racemic): binding “binds weakly” (T2, hairpin RNA, hairpin; gel after photo-cross-linking; covalent).
For CC(=O)N[C@@H](CC(C)C)C(=O)N[C@@H](CCC(=O)O)C(=O)N[C@@H](COCc1ccccc1)C(=O)N[C@@H](CC(=O)O)C(=O)COC(=O)c1c(C)cccc1C, the kinact/KI was 352000 M⁻¹ s⁻¹ (CASP3; enzyme activity, inhibitor).
For OC[C@@H]1[C@@H](O)[C@H](O)[C@@H](O)CN1CCCCCOCc1ccc(-c2ccc3c(c2)OCO3)cc1, the selectivity ratio was 13 (GBA2; inhibitor, 4MU-β-D-glucopyranoside; HEK293T homogenates overexpressing GBA2; relative to: GCS IC50 over GBA2 IC50).
Under “isoTOP-ABPP competition ratio”, CCCCCC=CC=C1C(=O)C=CC1CC=CCCCC(=O)O (centres unmarked) is recorded as 2.2 (Septin-9 (SEPTIN9, Homo sapiens, UniProt Q9UHD8); competitive isoTOP-ABPP, refers to: SEPT9 cysteine peptide; Ramos soluble proteome; 100 µM, with: iodoacetamide probe; relative to: DMSO over compound-treated, higher = stronger cysteine blockade).
N=C(N)NCCC[C@H](NC(=O)[C@@H]1CCCN1C(=O)[C@H](CCCNC(=N)N)NC(=O)[C@@H]1CCCN1C(=O)[C@H](CCCNC(=N)N)NC(=O)[C@@H]1CCCN1C(=O)[C@H](CCCNC(=N)N)NC(=O)[C@@H]1CCCN1C(=O)[C@H](CCCNC(=N)N)NC(=O)[C@@H]1CCCN1C(=O)[C@H](CCCNC(=N)N)NC(=O)[C@@H]1CCCN1C(=O)[C@H](CCCNC(=N)N)NC(=O)[C@@H]1CCCN1C(=O)[C@H](CCCNC(=N)N)NC(=O)[C@@H]1CCCN1C(=O)[C@H](CCCNC(=N)N)NC(=O)[C@@H]1CCCN1C(=O)[C@H](CCCNC(=N)N)NC(=O)[C@@H]1CCCN1C(=O)[C@H](CCCNC(=N)N)NC(=O)[C@@H]1CCCN1C(=O)[C@H](CCCNC(=N)N)NC(=O)[C@@H]1CCCN1C(=O)[C@H](CCCNC(=N)N)NC(=O)[C@@H]1CCCN1C(=O)[C@H](CCCNC(=N)N)NC(=O)[C@@H]1CCCN1C(=O)[C@H](CCCNC(=N)N)NC(=O)[C@@H]1CCCN1C(=O)[C@H](CCCNC(=N)N)NC(=O)[C@@H]1CCCN1C(=O)[C@H](CCCNC(=N)N)NC(=O)[C@@H]1CCCN1C(=O)[C@H](CCCNC(=N)N)NC(=O)[C@@H]1CCCN1C(=O)[C@H](CCCNC(=N)N)NC(=O)[C@@H]1CCCN1C(=O)[C@H](CCCNC(=N)N)NC(=O)[C@@H]1CCCN1C(=O)[C@H](CCCNC(=N)N)NC(=O)[C@@H]1CCCN1C(=O)[C@H](CCCNC(=N)N)NC(=O)[C@@H]1CCCN1C(=O)[C@H](CCCNC(=N)N)NC(=O)[C@@H]1CCCN1C(=O)[C@H](Cc1ccc(O)cc1)NC(=O)[C@H](CO)NC(=O)CN)C(=O)O — result for “maximum particle dimension”: 218 Å (Nucleophosmin (NPM1, Homo sapiens, UniProt P06748); SANS; 0.5 molar excess over NPM1, 25 °C).
OC[C@@H]1[C@@H](O)[C@H](O)[C@@H](O)CN1CCCCCOCC1CCCCC1 has a selectivity ratio of 375 (GBA2; inhibitor, 4MU-β-D-glucopyranoside; HEK293T homogenates overexpressing GBA2; relative to: GBA1 IC50 over GBA2 IC50).
O=C(N1CCCC1)n1cc(-c2ccc(-c3ccccc3)cc2)nn1: “SILAC activity ratio” 1.2 (Dipeptidyl peptidase 2 (Dpp7, Mus musculus, UniProt Q9ET22); probe labelling, inhibitor, competitive ABPP-SILAC, refers to: Dpp7; mouse T cells; concentration not given, 4 h, protein level; relative to: treated over DMSO cells, lower = stronger inhibition).
With CC(=O)N1CCC[C@H]1C(=O)N[C@H](C(=O)NCC(=O)N[C@@H](CC(=O)O)C(=O)COC(=O)c1c(C)cccc1C)C(C)(C)C the kinact/KI was 16700 M⁻¹ s⁻¹ (CASP3; enzyme activity, inhibitor).
With O=C1c2sc(-c3ccc(N4CCC(F)C4)nc3F)nc2CCN1c1cccnc1 (centres unmarked) the specific binding was 1260 a.u. and 1090 a.u. (Amyloid-beta precursor protein, amyloid-beta insoluble aggregates (APP, Homo sapiens, UniProt P05067); radioligand filter binding; AD brain insoluble fraction; 175 nM; higher = more binding).
O=C(NC1CCN(Cc2ccccc2)CC1)C(C(F)(F)F)C(F)(F)F — result for IC50: “inactive” (Chymotrypsinogen A (Bos taurus, UniProt P00766); enzyme activity, inhibitor).
With CC[C@H](NC(=O)[C@H](CC(C)C)NC(C)=O)C(=O)N[C@@H](CCC1CCCCC1)C(=O)N[C@@H](CC(=O)O)C(=O)COC(=O)c1c(C)cccc1C the kinact/KI was 104000 M⁻¹ s⁻¹ (CASP3; enzyme activity, inhibitor).
For CC(C)(C)COCCOCCN1C[C@H](O)[C@@H](O)[C@H](O)[C@@H]1CO, the selectivity ratio was 43500 (GBA2; inhibitor, 4MU-β-D-glucopyranoside; HEK293T homogenates overexpressing GBA2; relative to: GBA1 IC50 over GBA2 IC50).
The remaining activity of CC(C)[C@@H]1NC(=O)[C@H](Cc2ccccc2)NC(=O)CSC[C@@H](C(N)=O)NC(=O)[C@H](CCC(=O)O)NC(=O)[C@H](CO)NC(=O)[C@H](Cc2c[nH]c3cccc(Cl)c23)NC(=O)[C@H](C2CCCCC2)NC(=O)[C@H](C(C)C)NC(=O)[C@H](Cc2ccc(O)cc2)NC(=O)[C@H](CC(=O)O)NC(=O)[C@H](Cc2c[nH]c3ccccc23)NC(=O)[C@H](Cc2ccc(N)nc2)NC(=O)[C@H](Cc2c[nH]c3ccc(Cl)cc23)NC(=O)[C@H](CCC(=O)O)NC1=O is reported as 47.9% (Interleukin-1 receptor-like 2 (IL1RL2, Homo sapiens, UniProt Q9HB29); reporter gene (SEAP), inhibitor, HEK-Blue IL-36R reporter; HEK-Blue IL-36R cells; 1.23 µM, 6 h, with: IL-36γ 1 ng/mL).
For COc1ccc2[nH]c(Br)c(CCNC(C)=O)c2c1, the Emax was 90% (MTNR1A (Homo sapiens, UniProt P48039); cAMP, agonist, TR-FRET; CHO-K1; 20 min).

A few entries again:
For CCn1cc(-c2cccc(C(F)(F)F)c2)c2sc(C(=N)NC3CCS(=O)(=O)CC3)cc2c1=O, the ΔTm was -0.1 °C (Bromodomain adjacent to zinc finger domain protein 2B, bromodomain (BAZ2B, Homo sapiens, UniProt Q9UIF8); thermal stability, DSF).
For Nc1nc(SCc2ccccc2)nn1S(=O)(=O)c1ccc(F)cc1, “probe labeling increase” read 1.2 fold (LYPLAL1 (Homo sapiens, UniProt Q5VWZ2); enzyme activity, activator, gel-based ABPP; purified protein; concentration not given, with: FP-rhodamine; relative to: DMSO).
O=C(CC12CC3CC(CC(C3)C1)C2)NCCOCC(=O)NC1CCN(S(=O)(=O)c2cc(C(=O)Nc3cc(F)c(F)c(F)c3)ccc2F)CC1 has a kon of 283 M⁻¹ s⁻¹ (Capsid protein (C, Hepatitis B virus genotype D subtype ayw, UniProt P03146); surface plasmon resonance; 25 °C).
Cc1cc2oc(=O)cc(Cn3ccnc3)c2cc1O has an agonist activity of 2.65 ± 1.09% (ADRA1B (Homo sapiens, UniProt P35368); intracellular Ca2+ mobilization, agonist; COS-7; 500 µM; relative to: 3 µM ionomycin).
